# Values quoted from earlier work as cited in several papers.
# ± marks the error that the study gave.
# UniProt Q5U3Y7, sequence (whole entry, looked up): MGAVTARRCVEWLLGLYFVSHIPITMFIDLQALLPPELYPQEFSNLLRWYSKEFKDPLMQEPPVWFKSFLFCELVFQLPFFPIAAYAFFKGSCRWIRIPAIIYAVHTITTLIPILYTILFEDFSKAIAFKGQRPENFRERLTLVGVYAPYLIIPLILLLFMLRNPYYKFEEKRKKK
# UniProt P41595, sequence (whole entry, looked up): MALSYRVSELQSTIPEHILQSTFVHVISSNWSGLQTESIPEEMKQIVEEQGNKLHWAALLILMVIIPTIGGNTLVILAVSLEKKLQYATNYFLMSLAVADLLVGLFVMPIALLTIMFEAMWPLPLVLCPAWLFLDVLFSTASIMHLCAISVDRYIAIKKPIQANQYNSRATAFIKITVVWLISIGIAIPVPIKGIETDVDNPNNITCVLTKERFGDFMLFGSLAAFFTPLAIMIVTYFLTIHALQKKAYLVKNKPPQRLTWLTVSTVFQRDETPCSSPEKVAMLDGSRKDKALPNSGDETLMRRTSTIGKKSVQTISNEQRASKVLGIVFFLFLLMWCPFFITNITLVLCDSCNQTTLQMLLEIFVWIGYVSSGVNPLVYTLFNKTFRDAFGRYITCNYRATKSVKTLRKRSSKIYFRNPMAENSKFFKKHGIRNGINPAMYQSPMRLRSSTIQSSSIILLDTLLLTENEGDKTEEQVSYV
Molecule,tested on,assay,system,setting,how to read,endpoint,value
COc1ccc(-c2n(CC(=O)OC3CC(C)CCC3C(C)C)c3ccccc3[n+]2C)cc1 (stereo not drawn),Mycobacterium tuberculosis,,,>99% growth suppression,,MIC,16.6 µM
CCCCCn1cc(C(=O)c2cccc3ccccc23)c2ccccc21,cultured autaptic hippocampal neurons,excitatory postsynaptic currents,,,,IC50,15 nM
O=[P@]1(S)OC[C@H]2O[C@@H](n3cnc4cc(Cl)c(Cl)cc43)[C@H](O)[C@@H]2O1,PDE1C,"cyclic nucleotide hydrolysis, substrate or inhibitor, isothermal titration calorimetry",,,,Km or Ki,55800 nM
NC(=O)c1ncn([C@@H]2O[C@H](CO)[C@@H](O)[C@H]2O)n1,influenza A virus H3N2,"viral replication, MTT",Ishikawa,,,EC50,3700 nM
COc1ccc2c(c1OC)N=C(NC(=O)c1cccnc1)N1CCN=C21,PI4KIIIα,"enzyme activity, inhibitor",,with: 10 µM ATP,,IC50,830 nM
O=C(O)CCCO,,,baboon,"100 mg/kg, first 2 h",reference: vehicle,food-maintained behaviour,increased
C=CCN(CC=C)CCc1c[nH]c2ccc(OC)cc12,"Sigma intracellular receptor 2 (Tmem97, Rattus norvegicus, UniProt Q5U3Y7)",,,,,Ki,253 nM
Nc1ncnc2c1nc(Br)n2C1OC2COP(O)(=S)OC2C1O (stereo not drawn),PDE2A,"cyclic nucleotide hydrolysis, substrate or inhibitor, isothermal titration calorimetry",,,,Km or Ki,23300 nM
CNC(C)C(=O)c1ccc2c(c1)OCO2 (stereo not drawn),"dopamine transporter, rat","dopamine uptake, inhibitor",brain synaptosomes,,,IC50,1320 ± 133 nM
CO[C@H]1[C@@H](O)[C@H]([n+]2cn(C)c3c(=O)[nH]c(N)nc32)O[C@@H]1COP(=O)([O-])OP(=O)(O)OP(=O)(O)OC[C@H]1O[C@@H](n2cnc3c(=O)[nH]c(N)nc32)[C@H](O)[C@@H]1O,,,rabbit reticulocyte lysate,mRNA capped with compound,reference: m7GpppG-capped mRNA,relative translation efficiency,1.88 ± 0.4
CNC(C)C(=O)c1ccc(C)cc1 (stereo not drawn),"norepinephrine transporter, rat","norepinephrine uptake, inhibitor",brain synaptosomes,,,IC50,487 ± 66 nM
"Cc1nc([C@@H](CN)NC(=O)c2ccc(-c3ccc(F)c(F)c3)[nH]2)sc1CO (single isomer, unassigned)",HIV-1,viral replication,"MT-2, IIIB",multi-cycle,,IC50,4800 ± 800 nM
CCCC(C(=O)c1ccc2c(c1)OCO2)N1CCCC1 (stereo not drawn),"dopamine transporter, rat","dopamine uptake, inhibitor",brain synaptosomes,,,IC50,4.1 ± 0.5 nM
CN1C/C(=C\c2ccc(Cl)cc2Cl)C/C(=C\c2ccc(Cl)cc2Cl)C1,alpha4beta2 nicotinic acetylcholine receptor,binding,,with: [3H]nicotine,,Ki,> 100000 nM
CCCCCCCCCCCCOC(=O)O[C@H]1CC[C@H]2[C@@H]3CCC4=CC(=O)CC[C@@H]4[C@H]3[C@@H](C)C[C@]12C,,item: plasma LH,castrated adult rat,"subcutaneous, 12 mg/kg single",,duration of LH suppression,≥ 10 weeks
C=CCN(CC=C)CCc1c[nH]c2ccccc12,"5-hydroxytryptamine receptor 2B (HTR2B, Homo sapiens, UniProt P41595)","binding, [3H]LSD displacement",,,,Ki,61 nM
tirzepatide,,,type 2 diabetes patients,"10 mg weekly, 40 weeks",,HbA1c change from baseline,-2.24%
CC1CCC(C(C)C)C(OC(=O)Cn2c(-c3ccc(F)cc3)[n+](C)c3ccccc32)C1.[Cl-] (stereo not drawn),Mycobacterium tuberculosis,,,>99% growth inhibition,,MIC,28 µM
CO[C@H]1C[C@H](O[C@H]2CC[C@@]3(C)[C@@H](C2)C[C@@H]2O[C@]24[C@@H]3[C@H](O)C(=O)[C@]2(C)[C@@H](C3=CC(=O)OC3)CC[C@]42O)O[C@@H](C)[C@@H]1O,MDA-MB-231,cell viability,,72 h,,IC50,500 ± 50 nM
CCC(CC)COC(=O)[C@H](C)N[P@](=O)(OC[C@H]1O[C@@](C#N)(c2ccc3c(N)ncnn23)[C@H](O)[C@@H]1O)Oc1ccccc1,SARS-CoV-2,viral replication,HAE cells,,,EC50,9.9 nM
COc1cc2c(cc1C)CC(N)C2 (stereo not drawn),serotonin transporter,[3H]serotonin uptake,synaptosomes,,,IC50,212 nM
CCCC(C(=O)c1ccc(O)c(OC)c1)N1CCCC1 (stereo not drawn),"norepinephrine transporter, rat","norepinephrine uptake, inhibitor",brain synaptosomes,,,IC50,407 ± 43 nM
CCCCCc1cc(O)c2c(c1)OC(C)(C)[C@@H]1CC=C(C)C[C@@H]21,,,rabbit alpha-chymotrypsin glaucoma model,"topical, 50 µL of 0.4% w/v, submicron emulsion",,intraocular pressure decrease,10.8 ± 2.04 mmHg
C[C@]12CCC(=O)CC1=CC[C@@H]1[C@@H]2CC[C@]2(C)C(=O)CC[C@@H]12,ketosteroid isomerase Y30F/Y55F,substrate,,"pH 7.0, 3.3 % methanol",,kcat,10700 ± 400 s⁻¹

# Repeated from above:
Molecule,tested on,assay,system,setting,how to read,endpoint,value
C[C@]12CCC(=O)CC1=CC[C@@H]1[C@@H]2CC[C@]2(C)C(=O)CC[C@@H]12,ketosteroid isomerase Y30F/Y55F,substrate,,"pH 7.0, 3.3 % methanol",,kcat,10700 ± 400 s⁻¹
NC(=O)c1ncn([C@@H]2O[C@H](CO)[C@@H](O)[C@H]2O)n1,influenza A virus H3N2,"viral replication, MTT",Ishikawa,,,EC50,3700 nM
COc1ccc(-c2n(CC(=O)OC3CC(C)CCC3C(C)C)c3ccccc3[n+]2C)cc1 (stereo not drawn),Mycobacterium tuberculosis,,,>99% growth suppression,,MIC,16.6 µM
tirzepatide,,,type 2 diabetes patients,"10 mg weekly, 40 weeks",,HbA1c change from baseline,-2.24%
